Assay results from different studies.
Parts stem from different laboratories: compare values within a part only. Changes are numbered by the printed parent chain.
Chain of UniProt O15294 (whole entry, looked up): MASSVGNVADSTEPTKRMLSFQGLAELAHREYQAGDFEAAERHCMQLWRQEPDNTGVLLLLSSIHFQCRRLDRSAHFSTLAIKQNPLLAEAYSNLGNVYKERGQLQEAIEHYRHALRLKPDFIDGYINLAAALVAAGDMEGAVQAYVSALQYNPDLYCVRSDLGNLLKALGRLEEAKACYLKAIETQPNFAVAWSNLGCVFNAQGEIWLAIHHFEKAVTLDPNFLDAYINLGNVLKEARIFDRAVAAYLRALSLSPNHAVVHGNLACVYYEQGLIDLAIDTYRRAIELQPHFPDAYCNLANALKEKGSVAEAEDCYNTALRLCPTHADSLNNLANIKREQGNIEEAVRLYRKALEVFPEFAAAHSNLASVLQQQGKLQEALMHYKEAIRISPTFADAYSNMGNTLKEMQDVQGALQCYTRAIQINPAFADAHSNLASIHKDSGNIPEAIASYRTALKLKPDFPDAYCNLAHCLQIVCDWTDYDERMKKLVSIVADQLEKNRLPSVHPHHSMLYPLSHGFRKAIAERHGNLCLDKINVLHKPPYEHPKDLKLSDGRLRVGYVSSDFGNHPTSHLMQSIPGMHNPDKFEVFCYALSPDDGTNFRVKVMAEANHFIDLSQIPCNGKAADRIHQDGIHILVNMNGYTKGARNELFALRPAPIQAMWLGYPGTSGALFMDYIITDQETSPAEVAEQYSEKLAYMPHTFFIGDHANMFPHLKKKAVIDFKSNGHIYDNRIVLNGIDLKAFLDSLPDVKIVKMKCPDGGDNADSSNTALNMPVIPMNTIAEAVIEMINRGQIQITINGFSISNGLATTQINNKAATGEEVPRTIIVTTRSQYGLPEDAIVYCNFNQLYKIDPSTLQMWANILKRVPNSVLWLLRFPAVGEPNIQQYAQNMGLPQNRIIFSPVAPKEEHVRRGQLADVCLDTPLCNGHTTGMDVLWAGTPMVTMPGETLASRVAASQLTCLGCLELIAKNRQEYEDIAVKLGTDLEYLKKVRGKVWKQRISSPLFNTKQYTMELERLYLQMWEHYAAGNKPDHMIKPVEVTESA

Sample 1
Target: Ras GTPase-activating protein-binding protein 1, full length (G3BP1, Homo sapiens, UniProt Q13283)
Chain of UniProt Q13283 (whole entry, looked up): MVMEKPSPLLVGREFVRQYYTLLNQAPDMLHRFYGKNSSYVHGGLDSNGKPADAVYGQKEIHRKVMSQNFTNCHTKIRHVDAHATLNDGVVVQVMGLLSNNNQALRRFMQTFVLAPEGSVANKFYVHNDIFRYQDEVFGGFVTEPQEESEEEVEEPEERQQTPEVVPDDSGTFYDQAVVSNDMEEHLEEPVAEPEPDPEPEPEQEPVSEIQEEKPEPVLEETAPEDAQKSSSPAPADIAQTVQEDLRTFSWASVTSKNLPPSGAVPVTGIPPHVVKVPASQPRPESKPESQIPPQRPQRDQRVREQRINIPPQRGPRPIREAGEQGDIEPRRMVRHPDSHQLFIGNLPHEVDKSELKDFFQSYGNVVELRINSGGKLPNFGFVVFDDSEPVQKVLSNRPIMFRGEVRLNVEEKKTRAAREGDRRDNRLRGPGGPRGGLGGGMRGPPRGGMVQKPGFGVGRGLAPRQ
Technique: RNA Bind-n-Seq
Form: RNA
Sample: in vitro
Concentration: 200 nM
Setting: whole 134-nt RNA, ends assumed
Together with: 150 mM LiCl
Relative to: input library
Direction: higher = stronger binding
Endpoint: log2 enrichment
All molecules: 7-deaza-guanosine replaces G
Constant ends, left off below: GGGAGUUCUACAGUCCGACGAUC … UGGAAUUCUCGGGUGUCAAGG
CCUGUGCUACACAUCGUAUGUACCGAAUCGGGUUUUUUGGGGUUUUUUGGGUUUUUUGGGGAAAGUAUUAUGUUACGCCGUUCGGAUCUG: 0.0218
AAGUCCUGUGCUACACAUCGUAUGUACCGAAUCGGGAAAAAAAGGGAGGGUUUGGGAAAGUAUUAUGUUACGCCGUUCGGAUCUGCACUU: -1.35
CUCAAGUCCUGUGCUACACAUCGUAUGUACCGAAUCGGAAAAAGGUGGUUUGGAAAGUAUUAUGUUACGCCGUUCGGAUCUGCACUUCCA: -0.286
CCUGUGCUACACAUCGUAUGUACCGAAUCAAAUUUUUAAACCCCCCCAAACCCCCCCAAAAAAGUAUUAUGUUACGCCGUUCGGAUCUGC: 0.302
CUCAAGUCCUGUGCUACACAUCGUAUGUACCGAAUCGGGCCGGCCGGGCCGGGAAAGUAUUAUGUUACGCCGUUCGGAUCUGCACUUCCA: 0.742
UCCUGUGCUACACAUCGUAUGUACCGAAUCGGGCCCCCGGGGCCCCCGGGGCCCCCGGGGAAAGUAUUAUGUUACGCCGUUCGGAUCUGC: -1.4
UGGCCCUGGUGGCAUGCGGGGAGGAAGAGGUGGCCUCAUGGAUCGUGGUGGUCCCGGUGGAAUGUUCAGAGGUGGCCGUGCUGGAGACAG: -0.33
CCUGUGCUACACAUCGUAUGUACCGAAUCGGGCCCCCCGGGCCCCCCGGGCCCCCCGGGGAAAGUAUUAUGUUACGCCGUUCGGAUCUGC: -1.75

Sample 2
Target: CEP164, C-terminal peptide (human)
Technique: DHFR complementation, deep sequencing
Sample: yeast
Setting: single substitutions, model-inferred values
Relative to: wild type
Direction: higher = weaker binding
Endpoint: binding free energy change
Starting sequence: PDZK1, PDZ domain 2 (human); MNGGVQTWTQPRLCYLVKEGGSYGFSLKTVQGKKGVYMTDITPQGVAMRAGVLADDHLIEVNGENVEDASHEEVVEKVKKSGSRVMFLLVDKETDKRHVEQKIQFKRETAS; partner HNRVKVYRF
G82Y: 0.779 kcal/mol
K80C: 0.577 kcal/mol
R107D: -0.0276 kcal/mol
T7P: -0.0534 kcal/mol
L58Q: 0.363 kcal/mol
G82A: 0.568 kcal/mol
Q44K: 0.05 kcal/mol
V46E: 0.548 kcal/mol

Sample 3
Target: Sal-like protein 4, full length isoform A (SALL4, Homo sapiens, UniProt Q9UJQ4, residues 1-1053)
Chain of UniProt Q9UJQ4 (whole entry, looked up): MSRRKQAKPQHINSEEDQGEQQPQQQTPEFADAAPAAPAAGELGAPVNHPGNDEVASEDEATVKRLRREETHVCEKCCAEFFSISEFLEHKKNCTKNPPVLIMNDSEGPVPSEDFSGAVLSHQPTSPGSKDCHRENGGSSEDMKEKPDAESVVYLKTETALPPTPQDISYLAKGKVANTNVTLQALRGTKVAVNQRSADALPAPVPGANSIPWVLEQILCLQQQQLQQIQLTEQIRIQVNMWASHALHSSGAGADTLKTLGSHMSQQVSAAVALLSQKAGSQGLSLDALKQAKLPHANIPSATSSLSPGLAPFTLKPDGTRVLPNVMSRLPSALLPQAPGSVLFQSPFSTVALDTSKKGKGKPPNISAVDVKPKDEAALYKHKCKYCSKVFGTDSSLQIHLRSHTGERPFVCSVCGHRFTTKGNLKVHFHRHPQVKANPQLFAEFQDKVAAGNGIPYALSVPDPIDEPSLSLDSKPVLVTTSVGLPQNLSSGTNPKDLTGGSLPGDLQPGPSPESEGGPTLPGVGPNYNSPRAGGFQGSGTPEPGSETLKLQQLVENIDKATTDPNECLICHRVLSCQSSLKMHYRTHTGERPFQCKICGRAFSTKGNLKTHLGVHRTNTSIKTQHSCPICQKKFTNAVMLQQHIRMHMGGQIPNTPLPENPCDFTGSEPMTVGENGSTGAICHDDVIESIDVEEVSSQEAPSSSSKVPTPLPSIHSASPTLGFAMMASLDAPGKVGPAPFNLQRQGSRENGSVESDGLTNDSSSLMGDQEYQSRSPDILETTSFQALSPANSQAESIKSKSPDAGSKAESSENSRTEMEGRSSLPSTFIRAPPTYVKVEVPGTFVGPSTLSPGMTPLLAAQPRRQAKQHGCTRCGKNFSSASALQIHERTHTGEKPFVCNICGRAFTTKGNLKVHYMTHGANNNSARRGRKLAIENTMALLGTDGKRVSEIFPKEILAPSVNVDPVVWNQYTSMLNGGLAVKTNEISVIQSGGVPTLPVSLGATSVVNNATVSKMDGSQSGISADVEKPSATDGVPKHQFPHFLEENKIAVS
Technique: universal PBM
Form: double-stranded DNA, one strand shown
Sample: in vitro
Concentration: 600 nM
Setting: 8-mer, flanks averaged, mean of replicates
Direction: higher = stronger binding
Endpoint: E-score
ATTTTTCA: 0.301
ACAGTCGG: -0.142
CTGCGTCC: -0.296
CAAGGCAA: 0.121
TCGAGCGA: -0.203
ACCCATAC: 0.0819
CCATAAAG: 0.124
TATCAGCA: 0.102

Mixed results
TQTQWKFHHYWESHS
enrichment fold change (UDP-N-acetylglucosamine--peptide N-acetylglucosaminyltransferase 110 kDa subunit (OGT, Homo sapiens, UniProt O15294); binding, phage display NGS; peptide; concentration not given; relative to: input library): 4.29

A few entries again (mixed results):
TQTQWKFHHYWESHS
enrichment fold change (UDP-N-acetylglucosamine--peptide N-acetylglucosaminyltransferase 110 kDa subunit (OGT, Homo sapiens, UniProt O15294); binding, phage display NGS; peptide; concentration not given; relative to: input library): 4.29
